Experimental data pooled from the literature.
Each numbered part is a random draw from the data of one study; scales do not carry over between parts. Several values in a cell are separate wells, animals, samples, runs or records.
Sequence of UniProt P53667 (whole entry, looked up): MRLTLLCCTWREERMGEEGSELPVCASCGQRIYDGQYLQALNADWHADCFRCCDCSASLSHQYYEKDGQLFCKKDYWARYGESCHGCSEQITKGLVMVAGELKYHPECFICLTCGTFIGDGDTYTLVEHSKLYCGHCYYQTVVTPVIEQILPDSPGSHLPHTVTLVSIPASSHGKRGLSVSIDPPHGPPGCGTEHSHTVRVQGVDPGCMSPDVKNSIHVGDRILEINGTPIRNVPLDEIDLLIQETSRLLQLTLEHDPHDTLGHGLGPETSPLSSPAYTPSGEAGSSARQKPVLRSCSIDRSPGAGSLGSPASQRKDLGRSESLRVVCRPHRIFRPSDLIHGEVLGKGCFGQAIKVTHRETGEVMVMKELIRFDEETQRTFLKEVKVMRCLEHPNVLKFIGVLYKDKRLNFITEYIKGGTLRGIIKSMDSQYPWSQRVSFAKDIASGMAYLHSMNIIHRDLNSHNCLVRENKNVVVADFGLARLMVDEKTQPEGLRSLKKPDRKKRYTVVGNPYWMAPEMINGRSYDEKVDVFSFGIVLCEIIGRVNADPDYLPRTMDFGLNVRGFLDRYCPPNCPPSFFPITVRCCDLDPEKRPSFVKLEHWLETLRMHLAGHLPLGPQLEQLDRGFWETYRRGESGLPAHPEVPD
Sequence of UniProt P11309 (whole entry, looked up): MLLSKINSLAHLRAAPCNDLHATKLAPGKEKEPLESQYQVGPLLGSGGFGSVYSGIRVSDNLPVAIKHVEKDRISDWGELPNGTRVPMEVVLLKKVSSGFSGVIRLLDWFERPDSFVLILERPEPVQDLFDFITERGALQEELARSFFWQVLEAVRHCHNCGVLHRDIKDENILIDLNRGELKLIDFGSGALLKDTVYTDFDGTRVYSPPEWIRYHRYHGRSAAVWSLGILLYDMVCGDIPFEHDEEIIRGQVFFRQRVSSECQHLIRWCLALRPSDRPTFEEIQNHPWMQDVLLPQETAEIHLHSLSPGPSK
Sequence of UniProt Q99683 (whole entry, looked up): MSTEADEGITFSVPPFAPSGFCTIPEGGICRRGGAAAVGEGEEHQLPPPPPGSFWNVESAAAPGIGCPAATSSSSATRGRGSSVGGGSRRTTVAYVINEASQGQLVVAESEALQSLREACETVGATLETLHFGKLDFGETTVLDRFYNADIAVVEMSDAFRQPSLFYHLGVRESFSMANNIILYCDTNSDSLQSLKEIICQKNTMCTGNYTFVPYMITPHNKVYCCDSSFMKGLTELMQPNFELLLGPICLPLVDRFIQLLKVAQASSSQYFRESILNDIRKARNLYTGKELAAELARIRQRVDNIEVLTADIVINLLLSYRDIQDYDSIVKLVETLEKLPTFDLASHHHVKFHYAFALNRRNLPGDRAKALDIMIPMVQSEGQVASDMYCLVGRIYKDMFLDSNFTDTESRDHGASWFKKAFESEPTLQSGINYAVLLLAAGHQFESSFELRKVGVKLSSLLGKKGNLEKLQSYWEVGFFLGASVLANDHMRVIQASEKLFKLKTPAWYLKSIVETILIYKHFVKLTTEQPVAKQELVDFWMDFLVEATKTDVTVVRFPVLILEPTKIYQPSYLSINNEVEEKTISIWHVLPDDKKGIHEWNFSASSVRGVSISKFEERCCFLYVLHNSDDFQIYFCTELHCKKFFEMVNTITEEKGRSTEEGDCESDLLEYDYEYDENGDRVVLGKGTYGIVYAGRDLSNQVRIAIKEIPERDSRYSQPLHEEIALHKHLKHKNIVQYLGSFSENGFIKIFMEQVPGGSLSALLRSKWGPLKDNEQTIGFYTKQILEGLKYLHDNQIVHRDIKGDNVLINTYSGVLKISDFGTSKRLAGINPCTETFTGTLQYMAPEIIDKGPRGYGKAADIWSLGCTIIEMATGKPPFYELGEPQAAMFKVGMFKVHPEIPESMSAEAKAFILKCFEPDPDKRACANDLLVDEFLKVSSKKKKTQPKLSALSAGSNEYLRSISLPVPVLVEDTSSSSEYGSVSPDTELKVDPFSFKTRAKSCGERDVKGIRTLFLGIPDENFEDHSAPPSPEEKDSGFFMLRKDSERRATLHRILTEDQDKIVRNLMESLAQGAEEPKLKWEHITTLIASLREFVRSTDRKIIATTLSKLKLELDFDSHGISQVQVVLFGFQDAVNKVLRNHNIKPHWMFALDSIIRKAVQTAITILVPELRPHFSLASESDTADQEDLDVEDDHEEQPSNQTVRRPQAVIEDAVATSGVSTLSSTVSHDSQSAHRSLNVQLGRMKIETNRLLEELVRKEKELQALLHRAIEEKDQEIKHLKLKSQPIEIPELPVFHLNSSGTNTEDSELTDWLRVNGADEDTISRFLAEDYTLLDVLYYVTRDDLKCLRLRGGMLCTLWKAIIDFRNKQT
Sequence of UniProt Q8IVH8 (whole entry, looked up): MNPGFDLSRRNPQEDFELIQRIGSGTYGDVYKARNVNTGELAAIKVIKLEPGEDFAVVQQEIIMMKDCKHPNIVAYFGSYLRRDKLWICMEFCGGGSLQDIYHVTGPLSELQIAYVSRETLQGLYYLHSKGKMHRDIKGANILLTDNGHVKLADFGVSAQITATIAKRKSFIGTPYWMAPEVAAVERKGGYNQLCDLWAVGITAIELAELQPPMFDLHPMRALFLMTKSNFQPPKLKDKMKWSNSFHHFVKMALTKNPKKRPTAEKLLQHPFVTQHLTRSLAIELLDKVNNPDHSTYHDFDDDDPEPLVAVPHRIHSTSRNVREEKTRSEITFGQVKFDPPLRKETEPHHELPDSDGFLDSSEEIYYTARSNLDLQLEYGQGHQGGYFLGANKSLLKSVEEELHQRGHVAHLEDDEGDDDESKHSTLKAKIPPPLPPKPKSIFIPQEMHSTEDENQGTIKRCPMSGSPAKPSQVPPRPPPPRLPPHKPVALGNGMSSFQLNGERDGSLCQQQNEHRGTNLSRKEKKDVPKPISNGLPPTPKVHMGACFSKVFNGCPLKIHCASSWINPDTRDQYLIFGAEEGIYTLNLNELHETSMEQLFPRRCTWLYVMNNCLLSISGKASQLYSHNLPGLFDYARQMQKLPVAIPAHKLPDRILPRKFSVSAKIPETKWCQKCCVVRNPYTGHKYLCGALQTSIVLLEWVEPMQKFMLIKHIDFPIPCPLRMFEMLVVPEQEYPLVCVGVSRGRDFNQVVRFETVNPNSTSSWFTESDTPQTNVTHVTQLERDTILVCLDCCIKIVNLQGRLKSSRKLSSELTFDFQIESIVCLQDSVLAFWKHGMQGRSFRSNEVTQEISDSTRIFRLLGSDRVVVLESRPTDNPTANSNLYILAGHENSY

Study 1
Target: Mitogen-activated protein kinase kinase kinase 7 (MAP3K7, Homo sapiens, UniProt O43318)
Sequence of UniProt O43318 (whole entry, looked up): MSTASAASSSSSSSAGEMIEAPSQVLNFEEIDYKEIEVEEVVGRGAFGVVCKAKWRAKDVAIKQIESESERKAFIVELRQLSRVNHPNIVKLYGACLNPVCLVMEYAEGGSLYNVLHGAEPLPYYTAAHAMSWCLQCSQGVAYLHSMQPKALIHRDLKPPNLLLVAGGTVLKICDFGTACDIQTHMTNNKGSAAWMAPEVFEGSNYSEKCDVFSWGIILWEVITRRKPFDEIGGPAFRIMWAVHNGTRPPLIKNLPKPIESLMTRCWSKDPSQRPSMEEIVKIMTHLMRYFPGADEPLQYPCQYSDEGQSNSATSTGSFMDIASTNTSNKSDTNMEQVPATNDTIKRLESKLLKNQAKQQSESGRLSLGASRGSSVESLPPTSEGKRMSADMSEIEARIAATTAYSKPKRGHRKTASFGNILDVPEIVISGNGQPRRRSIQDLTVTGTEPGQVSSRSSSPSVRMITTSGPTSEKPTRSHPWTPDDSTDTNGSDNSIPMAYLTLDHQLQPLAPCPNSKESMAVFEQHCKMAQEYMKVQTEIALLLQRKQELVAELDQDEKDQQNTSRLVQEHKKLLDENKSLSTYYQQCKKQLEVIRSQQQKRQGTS
Effect on: enzyme activity
Mode: inhibitor
Concentration: 0.5 µM
Relative to: control
With O=C1NC(=O)c2c1c1c3ccccc3[nH]c1n1cncc21 the remaining activity was 63.4%.
With CN1CCN(c2ccc3nc(-c4c(N)c5c(F)cccc5[nH]c4=O)[nH]c3c2)CC1 the remaining activity was 19.3%.
The remaining activity of O=c1cc(N2CCOCC2)oc2c(-c3ccccc3)cccc12 is reported as 85.4%.
With O=C1Nc2ccc(Br)cc2/C1=C/c1cc2c([nH]1)CCCC2 the remaining activity was 60.9%.
CN(C)S(=O)(=O)c1ccc2c(c1)/C(=C/c1cc3c([nH]1)CCCC3)C(=O)N2 gave a remaining activity of 89%.
The remaining activity of Oc1cccc(-c2nc(N3CCOCC3)c3oc4ncccc4c3n2)c1 is reported as 97.4%.
With O=C1Cc2c([nH]c3ccc(Br)cc23)-c2ccccc2N1 the remaining activity was 84.2%.
The remaining activity of COc1cccc(-c2cc(=O)c3ccccc3o2)c1N is reported as 98.7%.
With CCCNC(=O)Nc1ccc(Oc2ncnc3cc(OC)c(OC)cc23)cc1Cl the remaining activity was 103%.
CCCCc1c(-c2ccc(OC)cc2)[nH]c2nccnc12 gave a remaining activity of 90.6%.
The remaining activity of Cc1cc(Nc2cc(N3CCN(C)CC3)nc(Sc3ccc(NC(=O)C4CC4)cc3)n2)[nH]n1 is reported as 90.7%.
c1ccc2c(-c3ccncc3)c[nH]c2c1 has a remaining activity of 95.5%.

Study 2
SMILES: C=CCc1ccc(O)c(-c2ccc(O)c(CC=C)c2)c1
Target: Anoctamin-1 (ANO1, Homo sapiens, UniProt Q5XXA6, del476-501)
Sequence of UniProt Q5XXA6 (whole entry, unmodified, looked up): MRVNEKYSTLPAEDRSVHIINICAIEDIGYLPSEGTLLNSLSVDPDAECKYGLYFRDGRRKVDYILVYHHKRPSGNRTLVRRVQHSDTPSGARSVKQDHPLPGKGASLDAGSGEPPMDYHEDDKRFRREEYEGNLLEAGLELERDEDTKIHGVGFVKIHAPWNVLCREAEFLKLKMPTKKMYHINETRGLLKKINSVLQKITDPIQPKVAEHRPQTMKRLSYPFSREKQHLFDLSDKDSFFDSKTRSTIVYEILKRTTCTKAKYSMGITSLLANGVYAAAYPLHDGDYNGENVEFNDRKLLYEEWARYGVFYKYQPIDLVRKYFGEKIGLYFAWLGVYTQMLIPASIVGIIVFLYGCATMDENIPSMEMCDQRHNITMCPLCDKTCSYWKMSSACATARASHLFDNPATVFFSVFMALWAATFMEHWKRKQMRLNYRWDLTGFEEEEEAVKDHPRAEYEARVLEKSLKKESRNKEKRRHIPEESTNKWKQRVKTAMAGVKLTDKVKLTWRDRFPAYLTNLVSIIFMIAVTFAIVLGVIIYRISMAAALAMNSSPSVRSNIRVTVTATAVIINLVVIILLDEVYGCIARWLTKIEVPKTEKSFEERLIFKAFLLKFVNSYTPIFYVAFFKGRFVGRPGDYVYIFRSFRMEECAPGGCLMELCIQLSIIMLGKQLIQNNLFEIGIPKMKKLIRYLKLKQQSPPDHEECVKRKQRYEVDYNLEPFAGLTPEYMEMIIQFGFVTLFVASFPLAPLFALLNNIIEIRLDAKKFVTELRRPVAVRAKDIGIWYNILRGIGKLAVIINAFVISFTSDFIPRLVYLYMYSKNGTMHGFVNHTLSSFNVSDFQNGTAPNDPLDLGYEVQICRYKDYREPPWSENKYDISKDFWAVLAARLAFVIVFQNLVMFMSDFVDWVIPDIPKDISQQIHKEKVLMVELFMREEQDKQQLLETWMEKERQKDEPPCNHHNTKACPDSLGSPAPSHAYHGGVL
Effect on: chloride current
Method: whole-cell patch clamp
3 µM, 100 mV, 300 nM free Ca2+ — normalised current: 0.701 and 0.667.
The normalised current was -0.0662 (1 µM, -40 mV, 300 nM free Ca2+, with: honokiol and magnolol 10 µM).
It gave 0.0067 and 0.0071 for normalised current (30 µM, 20 mV, 300 nM free Ca2+).
It gave -0.0002 for normalised current (30 µM, 0 mV, 300 nM free Ca2+).
For 3 µM, 80 mV, 300 nM free Ca2+: normalised current read 0.425 and 0.447.
It gave -0.0247 for normalised current (3 µM, -40 mV, 300 nM free Ca2+, with: honokiol and magnolol 10 µM).
It gave -0.0045 for normalised current (30 µM, -40 mV, 300 nM free Ca2+, with: honokiol and magnolol 10 µM).

Study 3
Species: human
Medium: microsomes or S9
Concentration: 2 µM
Time: 0.5 h
COc1cc2c(c(OC)c1)C1(CC(C)(C)N2)CC(C)(C)Nc2cc(OC)cc(OC)c21 gave a remaining compound of 70.6%.
Cn1c(N2CCN(C(=O)c3cc4cc(Cl)ccc4[nH]3)CC2)cc(=O)n(C)c1=O gave a remaining compound of greater than 100%.
The remaining compound of Cc1c[nH]c(CN2CCCCC2CCn2cccn2)c(C)c1=O (stereo not shown) is reported as 90.5%.
Cc1c(C)c(C)c(S(=O)(=O)N(C)c2cnccn2)c(C)c1C gave a remaining compound of 0.5%.
CCCN(CCC)C(=O)c1cccc(C(=O)NN(Cc2ccc(Br)cc2)C(=O)CN[C@H](C(=O)NCc2cccc(OC)c2)C(C)C)c1 has a remaining compound of 7.91%.
The remaining compound of COc1ccc2c3c1O[C@H]1C[C@@H](O)C=C[C@]31C[C@H](C)N(Cc1ccc(Br)cc1)C2 is reported as 76.7%.
O=C(O)CN1C(=O)S/C(=C\C=C2\SCCN2CCCS(=O)(=O)O)C1=S gave a remaining compound of 62.3%.
With CCC(CC)(CC)NC(=O)C1CCN(S(=O)(=O)CC)CC1 the remaining compound was 14.9%.

Study 4
Structure (SMILES): O=C(NS(=O)(=O)c1ccc(NCC2CCOCC2)c([N+](=O)[O-])c1)c1ccc(N2CCN(Cc3ccc(C(F)(F)F)cc3-c3ccc(Cl)cc3)CC2)cc1Oc1cnc2[nH]ccc2c1
Effect on: cell-free assay
Method: competition with immobilised ligand
Concentration: 1 µM
Mitogen-activated protein kinase 4 (MAPK4, Homo sapiens, UniProt P31152) — remaining binding: 97%.
For Ephrin type-A receptor 2 (EPHA2, Homo sapiens, UniProt P29317): remaining binding read 92%.
For Tyrosine-protein kinase Fes/Fps (FES, Homo sapiens, UniProt P07332): remaining binding read 100%.
It gave 98% for remaining binding (Mitogen-activated protein kinase 3 (MAPK3, Homo sapiens, UniProt P27361)).
It gave 88% for remaining binding (Leucine-rich repeat serine/threonine-protein kinase 2 (LRRK2, Homo sapiens, UniProt Q5S007, G2019S)).
The remaining binding was 80% (Angiopoietin-1 receptor (TEK, Homo sapiens, UniProt Q02763)).
Mitogen-activated protein kinase kinase kinase 5 (MAP3K5, Homo sapiens, UniProt Q99683) — remaining binding: 82%.
For Glycogen synthase kinase-3 alpha (GSK3A, Homo sapiens, UniProt P49840): remaining binding read 100%.
Phosphatidylinositol 4,5-bisphosphate 3-kinase catalytic subunit beta isoform (PIK3CB, Homo sapiens, UniProt P42338) — remaining binding: 100%.
Cyclin-dependent kinase 11B (CDK11B, Homo sapiens, UniProt P21127) — remaining binding: 97%.
It gave 92% for remaining binding (Mitogen-activated protein kinase kinase kinase kinase 3 (MAP4K3, Homo sapiens, UniProt Q8IVH8)).
For Ephrin type-B receptor 6 (EPHB6, Homo sapiens, UniProt O15197): remaining binding read 82%.
The remaining binding was 100% (Vascular endothelial growth factor receptor 3 (FLT4, Homo sapiens, UniProt P35916)).
It gave 92% for remaining binding (Serine/threonine-protein kinase pim-1 (PIM1, Homo sapiens, UniProt P11309)).
LIM domain kinase 1 (LIMK1, Homo sapiens, UniProt P53667) — remaining binding: 85%.
For Ephrin type-B receptor 3 (EPHB3, Homo sapiens, UniProt P54753): remaining binding read 100%.

A few entries again (study 1):
The remaining activity of Oc1cccc(-c2nc(N3CCOCC3)c3oc4ncccc4c3n2)c1 is reported as 97.4%.
CN(C)S(=O)(=O)c1ccc2c(c1)/C(=C/c1cc3c([nH]1)CCCC3)C(=O)N2 gave a remaining activity of 89%.
With CN1CCN(c2ccc3nc(-c4c(N)c5c(F)cccc5[nH]c4=O)[nH]c3c2)CC1 the remaining activity was 19.3%.
The remaining activity of Cc1cc(Nc2cc(N3CCN(C)CC3)nc(Sc3ccc(NC(=O)C4CC4)cc3)n2)[nH]n1 is reported as 90.7%.
CCCCc1c(-c2ccc(OC)cc2)[nH]c2nccnc12 gave a remaining activity of 90.6%.
With O=C1NC(=O)c2c1c1c3ccccc3[nH]c1n1cncc21 the remaining activity was 63.4%.
With O=C1Nc2ccc(Br)cc2/C1=C/c1cc2c([nH]1)CCCC2 the remaining activity was 60.9%.
